Results gathered from unrelated publications.
Protocols differ between the studies behind these lines. Numbers after ± are the reported error.

COC[C@]12CN(C)[C@@H]3[C@@H]4[C@H](OC)[C@H]1[C@@]3([C@@H](OC)C[C@H]2O)[C@@H]1C[C@@]2(O)[C@H](OC(=O)c3ccccc3)[C@@H]1[C@]4(OC(C)=O)[C@@H](O)[C@@H]2OC — Tmax (Sprague-Dawley rat, plasma; oral, dose not given, in PCW extract): 0.917 ± 0.144 h
Cc1cc(O)c(C(=O)CCC(C)C)c(=O)o1 — Tmax (Sprague Dawley rat, plasma; oral, 3.34 g lyophilized powder/kg, low dose): 2.32 ± 1.6 h
C=CC[N+]1([C@H]2C[C@H]3[C@@H]4CC[C@H]5C[C@H](O)[C@@H](N6CCOCC6)C[C@]5(C)[C@H]4CC[C@]3(C)[C@H]2OC(C)=O)CCCC1 — Tmax (Sprague Dawley rat, plasma; intravenous, dose not given, together with: sugammadex 5 mg/kg ODD): 0 h
Brc1ccc2c(c1)C(c1ccccn1)=NCc1c(-c3cnco3)ncn1-2 — Tmax (Sprague-Dawley rat, male, brain; oral, 2 mg/kg): 1 h
[Se] — Tmax (rat, brain; single dose, sodium selenate): ~2 h
COc1ccc(-c2cc(=O)c3c(OC)c(OC)c(OC)c(OC)c3o2)cc1OC — Tmax (Sprague Dawley rat, plasma; oral, 10 g lyophilized powder/kg, high dose): 2.07 ± 1.1 h
CCCCCn1nc(C(=O)Nc2cccc3ccccc23)c2ccccc21 — Tmax (rat, plasma; intraperitoneal, 3 mg/kg, mean of 4): 0.25 h
CC(=O)Oc1ccc2c3c1O[C@H]1[C@@H](OC(C)=O)C=C[C@H]4[C@@H](C2)N(C)CC[C@@]341 — Tmax (Sprague-Dawley rat, male, whole blood; intraperitoneal, 10 mg/kg, single dose alone): 0.0333 h
CC(=O)c1c([O-])cc(C)oc1=O.[Na+] — Tmax (rat Wistar female, serum; intragastric, 200 mg/kg): 1.06 ± 0.11 h
[2H]C([2H])(c1cc(F)c(F)cc1F)n1c(=O)n(Cc2ncn(C)n2)c(=O)[nH]/c1=N\c1cc2cn(C)nc2cc1Cl — Tmax (Sprague Dawley rat; oral, 25 mg/kg): 0.8 h
COC(=O)[C@H]1[C@@H](OC(=O)c2ccccc2)C[C@@H]2CC[C@H]1N2C — Tmax (LC-MS/MS; Sprague-Dawley rat, male, whole blood; intraperitoneal, 20 mg/kg): 0.241 ± 0.0353 h
CCOC(=O)C1=C[C@@H](OC(CC)CC)[C@H](NC(C)=O)[C@@H](N)C1 — Tmax (non-compartmental analysis; Sprague-Dawley rats, male, plasma; oral, 30 mg/kg, alone): 1.3 ± 0.5 h
C[C@@H]1O[C@@H](O[C@H]2[C@H](Oc3cc(O)c4c(c3)O[C@H](c3ccc(O)cc3)CC4=O)O[C@H](CO)[C@@H](O)[C@@H]2O)[C@H](O)[C@H](O)[C@H]1O — Tmax (Sprague Dawley rat, plasma; oral, 10 g lyophilized powder/kg, high dose): 0.1 ± 0.04 h
O=[Se](=O)([O-])[O-].[Na+].[Na+] — Tmax (rat; subcutaneous, 0.04 mg/kg): 2 h
Cc1ccc2cc(N3CCC4(O)C(=O)c5cc(C)c(C)cc5N=C34)ccc2n1 (centres unmarked) — Tmax (rat, plasma; intravenous, 2 mg/kg): 0.08 h
Cc1ccc(S(=O)(=O)Nc2c(N[C@H]3CC[C@H](NC(=O)Nc4ccc(F)c(Cl)c4)CC3)c(=O)c2=O)cc1 — Tmax (rat, plasma; oral, 20 mg/kg): 7 h
CC1(C)[C@@H](O)CC[C@]2(C)[C@H]3C(=O)C=C4[C@@H]5C[C@@](C)(C(=O)O)CC[C@]5(C)CC[C@@]4(C)[C@]3(C)CC[C@@H]12 — Tmax (Sprague Dawley rat, plasma; oral, 10 g lyophilized powder/kg, high dose): 5.86 ± 1.46 h
COC[C@@]12CC[C@H](OC)[C@]34C(C([C@H](OC)[C@H]13)[C@]1(OC(C)=O)[C@H]3[C@@H](OC(=O)c5ccccc5)[C@](O)(C[C@H]34)[C@@H](OC)[C@@H]1O)N(C)C2 — Tmax (Sprague-Dawley rat, plasma; oral, dose not given, in PCW extract): 0.667 ± 0.144 h
O=C1C[C@@H](c2ccc(O)cc2)Oc2cc(O)ccc21 — Tmax (Sprague Dawley rat, plasma; oral, 3.34 g lyophilized powder/kg, low dose): 3.45 ± 2.39 h
CCc1cc(OC)cc2c(/C=N/NC(=N)NCCc3ccc(F)cc3)c[nH]c12 — Tmax (rat Long-Evans, male, brain; intraperitoneal, 10 mg/kg): 8 h
CC1(C)[C@@H](O[C@H]2O[C@H](C(=O)O)[C@@H](O)[C@H](O)[C@H]2O[C@@H]2O[C@H](C(=O)O)[C@@H](O)[C@H](O)[C@H]2O)CC[C@]2(C)[C@H]3C(=O)C=C4[C@@H]5C[C@@](C)(C(=O)O)CC[C@]5(C)CC[C@@]4(C)[C@]3(C)CC[C@@H]12 — Tmax (Sprague Dawley rat, plasma; oral, 10 g lyophilized powder/kg, high dose): 6.86 ± 1.07 h
C#Cc1ccc2c(c1)C(c1ccccn1)=NCc1c(-c3cnco3)ncn1-2 — Tmax (Sprague Dawley rat, plasma; oral, 2 mg/kg, cassette dosing): ~1 h
O=C(O)[C@H]1O[C@@H](Oc2cc3oc(-c4ccccc4)cc(=O)c3c(O)c2O)[C@H](O)[C@@H](O)[C@@H]1O — Tmax (Sprague Dawley rat, plasma; oral, 3.34 g lyophilized powder/kg, low dose): 3.92 ± 1.91 h
O=C(O)CCC(CP(=O)(O)O)C(=O)O (centres unmarked) — Tmax (male Wistar rat, brain; ip, 100 mg/kg): 0.08 h
COC(=O)[C@H]1[C@@H](OC(=O)c2ccccc2)C[C@@H]2CC[C@H]1N2 — Tmax (LC-MS/MS; Sprague-Dawley rat, whole blood; intraperitoneal, 20 mg/kg of cocaine): 0.198 ± 0.0315 h
O=C1C[C@@H](c2ccc(O[C@@H]3O[C@H](CO)[C@@H](O)[C@H](O)[C@H]3O)cc2)Oc2cc(O)ccc21 — Tmax (Sprague Dawley rat, plasma; oral, 10 g lyophilized powder/kg, high dose): 0.14 ± 0.06 h
